Results pooled from the literature.
Protocols differ between the studies behind these lines. Values joined by “and” are separate records of one study, mostly repeats; a detail may differ. ± marks the error that the study gave.

O=C(N[C@H](Cc1c[nH]c2ccccc12)C(=O)Nc1ccncc1)c1ccc(-c2ccc(F)c(Cl)c2)cc1F
concentration (Swiss Webster mouse, female, intestine; oral, 50 mg/kg, 8 h, 20% Kolliphor vehicle): 52.6 µM

Oc1ccc(/C=C/c2cc(O)cc(O)c2)cc1
albumin (rat, azoxymethane-injected, blood at sacrifice; 100 mg/kg): 4.9 g/dL and 4.6 g/dL and 4.7 g/dL

OC[C@H]1OC(O)[C@H](O)[C@@H](O)[C@@H]1O (some centres unmarked)
osmolality (aqueous solution; 5 mM, added: glucosamine): 3 mOsmol/kg

CCn1c(SCC(=O)Nc2ccccc2OC)nnc1-c1ccco1
logP (octanol/buffer; pH 11, known kinase inactives set): 2.44

CC1(C)CCC(CN2CCN(c3ccc(C(=O)NS(=O)(=O)c4ccc(NCC5CCOCC5)c([N+](=O)[O-])c4)c(Oc4cnc5[nH]ccc5c4)c3)CC2)=C(c2ccc(Cl)cc2)C1
dose-normalised C6 (C6/D) (UPLC-MS/MS; patients on VA-based chemotherapy; oral, dose not given, 6 h, added: triazole antifungals): 0.368 ± 0.215

CCOc1c([C@H](C)n2nc(C)c3c(N)ncnc32)cc(Cl)c(F)c1[C@@H]1CNC(=O)C1
half-life geometric mean (patients, monotherapy; oral, 45 mg once daily, cycle 1 day 15): 11.1 h

Cc1cc(C)c(CNC(=O)c2cc(Cl)c3c(c2C)O[C@@](C)([C@H]2CC[C@H](N(C)C)CC2)O3)c(=O)[nH]1
patients with TEAE (CTCAE v4.0, item: blood bilirubin increased; human relapsed/refractory NHL; oral, 200 mg once daily, onset after cycle 1 day 1, overall treatment period): 16.7%

O=C(O)CCC(=O)O.[2H]C([2H])([2H])Oc1cc(C)c2[nH]ccc2c1CN1CC[C@@H](C2CC2)C[C@H]1c1ccc(C(=O)O)cc1
Vd/F (LC-MS/MS, mean; human, plasma; 400 mg, single dose, fasting): 120 L

CNc1ccc(-c2nc3ccc(O)cc3s2)cc1 [carbon-11 labelled]
SUV (ex vivo biodistribution; B6SJL mouse, normal, hippocampus; intravenous, 30 min): 0.157 ± 0.055

O=C1NCCc2nc(OCc3cccc(F)c3)ccc21
Irwin test score (item: loss of Escape; Sprague-Dawley rat male; oral, 100 mg/kg, 0 min; baseline: baseline, direction not given): 0.4

Cc1ccc(Sc2ccccc2N2CCNCC2)c(C)c1
diarrhoea incidence (healthy adult men; oral, 40 mg single dose, treatment-emergent adverse events): 50%

C=CC(=O)NC1CCN(c2ncc3ncnc(Nc4ccc(Oc5ccc6c(c5)ncn6C)c(C)c4)c3n2)CC1
dose-normalised AUC(0-inf) (healthy male volunteers, plasma; intravenous, 10 µg [14C] microtracer): 293 nmol·h/L/mg

Cc1c(NS(=O)(=O)c2cccc3nonc23)c(=O)n(-c2ccccc2)n1C
logP (octanol/buffer; pH 11, known kinase inactives set): -0.81

N#Cc1ccc2c(c1)[C@H]1CCCN(C(=O)c3ccc4[nH]cnc4c3)[C@H]1C2
androstenedione level (human, female; 160 mg, day 7): 7.4 nmol/L

Cc1cc(NC2CCN(C(=O)OC3CCN(C(=O)/C=C/CN(C)C)C3)CC2)n2ncc(C(C)C)c2n1 (centres unmarked)
patients with Anemia (patients with advanced solid tumours; dose not given, QD arm, any grade): 30%

CC1(C)C(/C=C/C=C/C=C/C=C2\N(CCCCS(=O)(=O)O)c3ccc4ccccc4c3C2(C)C)=[N+](CCCCS(=O)(=O)[O-])c2ccc3ccccc3c21
fluorescence half-life (solution; 66 µM, room temperature, dark, 800 nm): 38.4 h

COc1ccc(C(O)COc2ccc(-c3csc(-c4ccc(OCC(O)c5ccc(OC)c(OC)c5)cc4)n3)cc2)cc1OC (centres unmarked)
tlast (C57BL/6J mice, plasma; oral, 30 mg/kg): 48 h

Nc1nc(NC2CC2)c2ncn([C@H]3C=C[C@@H](CO)C3)c2n1
drug concentration (Tat- transgenic mouse, striatum; subcutaneous osmotic pump, dose not given, 5 d): 134000 ± 26100 ng/g

Cc1ncnc2c1ccn2[C@@H]1C[C@H](Oc2cc(C(F)F)c(F)c3c2CNCC3)[C@@H](O)[C@H]1O
accumulation ratio (human; oral, 4 mg twice daily; baseline: AUC(tau) multiple over single dose): 3.77 and 2.83

O=C(Nc1nc2cccc(-c3ccc(CN4CCS(=O)(=O)CC4)cc3)n2n1)C1CC1
treatment-emergent adverse events (item: epigastric discomfort; human rheumatoid arthritis patients; oral, 75 mg once daily, 4 weeks, regardless of relatedness): 0%

Repeated from above:
Cc1cc(NC2CCN(C(=O)OC3CCN(C(=O)/C=C/CN(C)C)C3)CC2)n2ncc(C(C)C)c2n1 (centres unmarked)
patients with Anemia (patients with advanced solid tumours; dose not given, QD arm, any grade): 30%

O=C(Nc1nc2cccc(-c3ccc(CN4CCS(=O)(=O)CC4)cc3)n2n1)C1CC1
treatment-emergent adverse events (item: epigastric discomfort; human rheumatoid arthritis patients; oral, 75 mg once daily, 4 weeks, regardless of relatedness): 0%

O=C(O)CCC(=O)O.[2H]C([2H])([2H])Oc1cc(C)c2[nH]ccc2c1CN1CC[C@@H](C2CC2)C[C@H]1c1ccc(C(=O)O)cc1
Vd/F (LC-MS/MS, mean; human, plasma; 400 mg, single dose, fasting): 120 L
